Measurements of several laboratories.
Numbered parts are unrelated; each lists some results of a single study. Values joined by “and” are separate records of one study, mostly repeats; a detail may differ.
UniProt Q92772, sequence (whole entry, looked up): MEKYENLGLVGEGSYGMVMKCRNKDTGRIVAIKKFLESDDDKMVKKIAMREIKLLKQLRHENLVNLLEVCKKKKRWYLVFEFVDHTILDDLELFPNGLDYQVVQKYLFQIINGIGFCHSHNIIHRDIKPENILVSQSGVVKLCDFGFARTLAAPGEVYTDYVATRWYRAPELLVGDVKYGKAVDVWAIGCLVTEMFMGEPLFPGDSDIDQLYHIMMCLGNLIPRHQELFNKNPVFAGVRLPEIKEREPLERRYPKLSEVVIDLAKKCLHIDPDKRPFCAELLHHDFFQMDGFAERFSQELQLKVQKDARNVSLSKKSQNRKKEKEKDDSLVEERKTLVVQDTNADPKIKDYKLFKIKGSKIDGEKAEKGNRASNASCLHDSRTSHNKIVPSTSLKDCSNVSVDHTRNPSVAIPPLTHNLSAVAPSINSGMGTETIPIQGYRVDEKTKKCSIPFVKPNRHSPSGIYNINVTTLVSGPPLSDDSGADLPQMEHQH
UniProt P61075, sequence (whole entry, looked up): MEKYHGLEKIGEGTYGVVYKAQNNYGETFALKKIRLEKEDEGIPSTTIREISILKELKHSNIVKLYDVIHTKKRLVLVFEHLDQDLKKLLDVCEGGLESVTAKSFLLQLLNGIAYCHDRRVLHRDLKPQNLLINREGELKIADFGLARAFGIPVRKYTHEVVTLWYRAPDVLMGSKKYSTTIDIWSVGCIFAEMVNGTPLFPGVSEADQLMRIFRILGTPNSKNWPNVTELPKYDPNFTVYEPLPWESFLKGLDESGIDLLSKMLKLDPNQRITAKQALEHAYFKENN
UniProt O14730, sequence (whole entry, looked up): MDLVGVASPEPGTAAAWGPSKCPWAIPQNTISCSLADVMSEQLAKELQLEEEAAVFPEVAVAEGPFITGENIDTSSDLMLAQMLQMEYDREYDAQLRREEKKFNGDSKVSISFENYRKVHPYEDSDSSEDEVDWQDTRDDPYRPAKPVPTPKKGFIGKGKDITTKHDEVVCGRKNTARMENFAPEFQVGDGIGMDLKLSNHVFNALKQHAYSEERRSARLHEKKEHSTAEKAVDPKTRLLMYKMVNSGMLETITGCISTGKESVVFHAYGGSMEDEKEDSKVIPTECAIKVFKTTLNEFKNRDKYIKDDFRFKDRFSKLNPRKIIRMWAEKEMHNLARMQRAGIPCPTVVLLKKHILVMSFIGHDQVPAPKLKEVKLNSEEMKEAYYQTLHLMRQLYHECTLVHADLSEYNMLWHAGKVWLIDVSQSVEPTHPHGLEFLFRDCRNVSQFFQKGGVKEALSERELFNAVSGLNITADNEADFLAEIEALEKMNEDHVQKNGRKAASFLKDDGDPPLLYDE
UniProt Q6XUX3, sequence (whole entry, looked up): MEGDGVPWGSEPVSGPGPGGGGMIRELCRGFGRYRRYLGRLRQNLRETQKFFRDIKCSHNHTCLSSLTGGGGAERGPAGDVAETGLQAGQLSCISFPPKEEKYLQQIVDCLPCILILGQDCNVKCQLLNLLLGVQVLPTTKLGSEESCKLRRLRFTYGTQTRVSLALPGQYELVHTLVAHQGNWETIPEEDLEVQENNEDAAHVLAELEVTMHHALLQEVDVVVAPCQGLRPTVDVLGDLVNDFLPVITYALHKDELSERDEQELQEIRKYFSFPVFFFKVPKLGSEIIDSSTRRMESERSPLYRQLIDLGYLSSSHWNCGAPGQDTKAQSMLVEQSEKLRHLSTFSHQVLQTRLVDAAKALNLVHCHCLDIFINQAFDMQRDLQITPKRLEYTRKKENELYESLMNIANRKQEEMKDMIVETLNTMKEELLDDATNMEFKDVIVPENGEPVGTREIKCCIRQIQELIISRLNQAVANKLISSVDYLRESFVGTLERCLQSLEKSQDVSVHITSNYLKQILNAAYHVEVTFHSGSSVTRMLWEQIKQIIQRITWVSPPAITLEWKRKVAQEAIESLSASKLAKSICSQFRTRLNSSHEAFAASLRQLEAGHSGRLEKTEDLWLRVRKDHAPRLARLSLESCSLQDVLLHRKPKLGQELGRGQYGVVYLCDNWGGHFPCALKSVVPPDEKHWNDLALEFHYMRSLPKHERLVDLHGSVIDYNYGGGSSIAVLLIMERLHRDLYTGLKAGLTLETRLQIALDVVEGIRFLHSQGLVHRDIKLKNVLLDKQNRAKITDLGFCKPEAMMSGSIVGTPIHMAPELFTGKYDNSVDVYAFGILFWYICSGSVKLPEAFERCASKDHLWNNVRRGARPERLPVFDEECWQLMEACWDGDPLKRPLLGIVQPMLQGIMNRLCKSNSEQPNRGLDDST
UniProt Q13557, sequence (whole entry, looked up): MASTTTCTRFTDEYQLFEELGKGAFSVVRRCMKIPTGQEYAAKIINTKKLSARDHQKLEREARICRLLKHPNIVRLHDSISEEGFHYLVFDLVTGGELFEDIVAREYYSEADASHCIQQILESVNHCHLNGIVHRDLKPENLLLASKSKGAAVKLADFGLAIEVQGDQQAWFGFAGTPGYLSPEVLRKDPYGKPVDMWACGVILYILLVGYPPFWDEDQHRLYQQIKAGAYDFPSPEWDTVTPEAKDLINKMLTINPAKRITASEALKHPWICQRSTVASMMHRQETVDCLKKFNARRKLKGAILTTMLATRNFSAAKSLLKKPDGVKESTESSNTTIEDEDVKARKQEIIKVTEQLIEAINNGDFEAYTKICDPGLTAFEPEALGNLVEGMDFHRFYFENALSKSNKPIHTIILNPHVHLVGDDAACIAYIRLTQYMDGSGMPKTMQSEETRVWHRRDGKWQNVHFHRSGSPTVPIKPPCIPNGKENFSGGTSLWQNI
UniProt P51817, sequence (whole entry, looked up): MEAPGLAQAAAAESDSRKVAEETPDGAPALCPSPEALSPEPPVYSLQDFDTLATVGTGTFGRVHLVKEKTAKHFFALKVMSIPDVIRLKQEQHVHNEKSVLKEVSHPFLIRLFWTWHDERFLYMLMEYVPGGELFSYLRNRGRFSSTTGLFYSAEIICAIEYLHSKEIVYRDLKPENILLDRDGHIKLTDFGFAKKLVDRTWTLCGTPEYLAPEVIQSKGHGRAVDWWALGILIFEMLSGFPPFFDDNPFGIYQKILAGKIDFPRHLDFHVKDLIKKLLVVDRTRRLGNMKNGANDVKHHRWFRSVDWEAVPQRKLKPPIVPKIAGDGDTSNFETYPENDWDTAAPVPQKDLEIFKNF
UniProt Q9HBY8, sequence (whole entry, looked up): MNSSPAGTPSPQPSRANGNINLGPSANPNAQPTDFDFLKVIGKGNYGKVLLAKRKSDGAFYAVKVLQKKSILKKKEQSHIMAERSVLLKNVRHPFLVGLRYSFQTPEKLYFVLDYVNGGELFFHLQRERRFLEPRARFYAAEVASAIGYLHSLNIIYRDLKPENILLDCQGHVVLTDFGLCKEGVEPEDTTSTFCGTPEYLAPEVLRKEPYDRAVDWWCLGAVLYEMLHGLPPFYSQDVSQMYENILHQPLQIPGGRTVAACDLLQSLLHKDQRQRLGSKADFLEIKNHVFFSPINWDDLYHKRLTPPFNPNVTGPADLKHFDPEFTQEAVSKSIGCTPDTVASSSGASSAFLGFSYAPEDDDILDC
UniProt P11802, sequence (whole entry, looked up): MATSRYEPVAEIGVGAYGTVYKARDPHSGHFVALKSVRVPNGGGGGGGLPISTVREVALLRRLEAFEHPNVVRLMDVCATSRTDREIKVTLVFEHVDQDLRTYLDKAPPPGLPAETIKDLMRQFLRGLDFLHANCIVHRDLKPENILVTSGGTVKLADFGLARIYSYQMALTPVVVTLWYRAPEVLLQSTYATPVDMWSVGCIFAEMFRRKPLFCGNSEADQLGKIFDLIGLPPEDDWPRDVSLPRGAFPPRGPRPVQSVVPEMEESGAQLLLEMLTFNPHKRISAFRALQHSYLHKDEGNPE
UniProt P62344, sequence (whole entry, looked up): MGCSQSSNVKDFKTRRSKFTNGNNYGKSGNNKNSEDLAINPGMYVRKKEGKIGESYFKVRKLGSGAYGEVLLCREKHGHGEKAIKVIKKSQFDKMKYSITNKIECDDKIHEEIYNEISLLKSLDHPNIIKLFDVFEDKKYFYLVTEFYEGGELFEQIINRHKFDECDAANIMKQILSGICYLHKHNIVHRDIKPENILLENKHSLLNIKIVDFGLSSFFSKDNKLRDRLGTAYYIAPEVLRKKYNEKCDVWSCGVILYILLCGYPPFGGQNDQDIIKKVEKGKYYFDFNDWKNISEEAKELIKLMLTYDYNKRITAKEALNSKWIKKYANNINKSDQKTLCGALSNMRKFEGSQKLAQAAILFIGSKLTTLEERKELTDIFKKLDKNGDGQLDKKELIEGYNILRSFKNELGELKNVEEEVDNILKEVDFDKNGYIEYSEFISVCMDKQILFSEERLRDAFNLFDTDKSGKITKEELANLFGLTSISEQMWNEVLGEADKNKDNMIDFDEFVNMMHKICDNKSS
UniProt Q8IW41, sequence (whole entry, looked up): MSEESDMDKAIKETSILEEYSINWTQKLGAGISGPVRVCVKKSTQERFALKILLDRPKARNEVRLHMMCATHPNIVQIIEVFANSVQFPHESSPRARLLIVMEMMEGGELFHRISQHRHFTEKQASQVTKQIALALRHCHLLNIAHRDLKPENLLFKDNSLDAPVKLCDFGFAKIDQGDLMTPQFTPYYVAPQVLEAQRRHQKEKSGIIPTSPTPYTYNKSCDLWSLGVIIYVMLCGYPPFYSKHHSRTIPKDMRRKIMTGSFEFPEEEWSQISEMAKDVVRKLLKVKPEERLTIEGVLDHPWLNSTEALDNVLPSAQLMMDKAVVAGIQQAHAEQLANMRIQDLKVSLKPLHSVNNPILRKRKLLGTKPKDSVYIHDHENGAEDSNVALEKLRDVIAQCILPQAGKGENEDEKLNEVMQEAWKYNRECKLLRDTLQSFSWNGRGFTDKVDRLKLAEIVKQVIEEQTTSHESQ

Block 1
Target: panel of 300 human kinases
Concentration: 0.5 µM
Reading: higher = more selective
| SMILES | Gini score |
| --- | --- |
| CCCCc1c(-c2ccc(O)cc2)[nH]c2nccnc12 | 0.57 |
| Clc1ccc(Nc2nnc(Cc3ccncc3)c3ccccc23)cc1 | 0.73 |
| N#CC(c1ccnc(NCCc2cccnc2)n1)c1nc2ccccc2s1 (stereo not drawn) | 0.67 |
| CCOC(=O)c1c(C)[nH]c(/C=C2\C(=O)Nc3ccccc32)c1C | 0.57 |
| O=C1NC(=O)c2cc(Nc3ccc(F)cc3)c(Nc3ccc(F)cc3)cc21 | 0.62 |
| Nc1nc(Nc2ccc(S(N)(=O)=O)cc2)nn1C(=S)Nc1c(F)cccc1F | 0.37 |
| Cc1ccc(Nc2nccc(N(C)c3ccc4c(C)n(C)nc4c3)n2)cc1S(N)(=O)=O | 0.71 |

Block 2
SMILES: CN1CCN(C(=O)c2ccc(NC(=O)Nc3ccc(N(C)c4ccnc(Nc5ccc(CS(C)(=O)=O)cc5)n4)cc3)cc2)CC1
Observed: binding
Concentration: 1 µM
| target | method | remaining binding |
| --- | --- | --- |
| FGFR3 (Homo sapiens, UniProt P22607) | competition with immobilised ligand | 100% |
| FES (Homo sapiens, UniProt P07332) | – | 67% |
| CDPK1 (Plasmodium falciparum, UniProt P62344) | – | 71% |
| CDKL2 (Homo sapiens, UniProt Q92772) | competition with immobilised ligand | 1.7% |
| CRK2 (Plasmodium falciparum, UniProt P61075) | – | 95% |
| CAMK1G (Homo sapiens, UniProt Q96NX5) | – | 88% |

Block 3
Host: human
Matrix: microsomes or S9
Concentration: 2 µM
Time: 0.5 h
| SMILES | remaining compound [%] |
| --- | --- |
| O=c1c(Br)c(Br)cnn1CCn1ncc(Br)c(Br)c1=O | 66.1 |
| O=C(O)C[C@]1(C(=O)NCc2ccccc2)CC(/C=C/c2ccccc2)=NO1 | > 100 |
| O=C(NCCCN1CCCC1=O)C1CCCN1c1nnc(N2CCCC2=O)s1 (stereo not drawn) | > 99 |
| Nc1c(Br)cc(O)cc1Br | 83.8 |
| Cc1n[nH]c(-c2ccc(O)cc2O)c1Oc1ccc(Cl)cc1 | 40 |
| OCC1(COc2ccccc2-c2nncn2-c2ccccc2)COC1 | > 100 |
| CC(=O)N1CCC2(CC1)OC(=O)C(C)=C2C(=O)N1CCN(C)CC1 | 108 |
| Cc1nn(CCOC(=O)c2ccoc2)c2ncc(Br)cc12 | 3.75 |
| CSc1ccc(C2c3cccn3-c3sc4c(c3CN2C(=O)NCc2ccc(F)cc2)CCCC4)cc1 (stereo not drawn) | 5.17 |
| Clc1ccc(CCN2CCN(Cc3nc[nH]n3)CC2)cc1Cl | 95.1 |

Block 4
Cell line: A-375
Concentration: 100 µM
Time: 36 h
| SMILES | viability |
| --- | --- |
| CO[C@H]1C[C@@H]2CC[C@@H](C)[C@@](O)(O2)C(=O)C(=O)N2CCCC[C@H]2C(=O)O[C@H]([C@H](C)C[C@@H]2CC[C@@H](OCCO)[C@H](OC)C2)CC(=O)[C@H](C)/C=C(\C)[C@@H](O)[C@@H](OC)C(=O)[C@H](C)C[C@H](C)/C=C/C=C/C=C/1C | 5.59% |
| O=C(O)[C@@H](S)[C@@H](S)C(=O)O | 111% |
| COc1cc2ccc(=O)oc2cc1OC | 110% |
| CO[C@H]1/C=C/O[C@@]2(C)Oc3c(C)c(O)c4c(O)c(c(/C=N/N5CCN(C)CC5)c(O)c4c3C2=O)NC(=O)/C(C)=C\C=C\[C@H](C)[C@H](O)[C@@H](C)[C@@H](O)[C@@H](C)[C@H](OC(C)=O)[C@@H]1C | 126% |
| CCCCN1CCCC[C@H]1C(=O)Nc1c(C)cccc1C | 81.8% and 89.6% |
| NC(=O)c1cn(Cc2c(F)cccc2F)nn1 | 106% |
| CCOc1ccc2nc(SCCN3CCOCC3)[nH]c2c1 | 104% |
| CN(C)CCN(Cc1ccc(Cl)cc1)c1ccccn1 | 75.4% |

Block 5
SMILES: CN(C)C(=O)Cn1cc(-c2nc([C@@](C)(c3ccc(-c4cnc(N)nc4)cc3)C3CC3)no2)cn1
Method: competition with immobilised ligand
Concentration: 1 µM
| target | observed | remaining binding [%] |
| --- | --- | --- |
| PRKX (Homo sapiens, UniProt P51817) | cell-free assay | 100 |
| Cyclin-dependent kinase 4, with cyclin D3 (CDK4, Homo sapiens, UniProt P11802) | cell-free assay | 94 |
| EGFR (Homo sapiens, UniProt P00533, del747-752/P753S) | cell-free assay | 75 |
| CLK2 (Homo sapiens, UniProt P49760) | cell-free assay | 96 |
| BLK (Homo sapiens, UniProt P51451) | cell-free assay | 98 |
| DCLK2 (Homo sapiens, UniProt Q8N568) | cell-free assay | 91 |
| SGK2 (Homo sapiens, UniProt Q9HBY8) | cell-free assay | 83 |
| Myosin-IIIb (MYO3B, Homo sapiens, UniProt Q8WXR4) | binding | 70 |
| KDR (Homo sapiens, UniProt P35968) | cell-free assay | 87 |
| PIK3C3 (Homo sapiens, UniProt Q8NEB9) | cell-free assay | 89 |
| RIOK3 (Homo sapiens, UniProt O14730) | cell-free assay | 100 |
| MAPKAPK5 (Homo sapiens, UniProt Q8IW41) | cell-free assay | 94 |
| CDKL2 (Homo sapiens, UniProt Q92772) | binding | 100 |
| Tyrosine-protein kinase JAK3, JH1 (JAK3, Homo sapiens, UniProt P52333) | cell-free assay | 95 |
| CAMK2D (Homo sapiens, UniProt Q13557) | cell-free assay | 100 |
| FLT1 (Homo sapiens, UniProt P17948) | cell-free assay | 100 |
| FLT3 (Homo sapiens, UniProt P36888, K663Q) | cell-free assay | 94 |
| DSTYK (Homo sapiens, UniProt Q6XUX3) | cell-free assay | 57 |
| STK39 (Homo sapiens, UniProt Q9UEW8) | cell-free assay | 81 |
| NEK7 (Homo sapiens, UniProt Q8TDX7) | cell-free assay | 90 |
| EGFR (Homo sapiens, UniProt P00533, L858R/T790M) | cell-free assay | 93 |
| Myosin-IIIa (MYO3A, Homo sapiens, UniProt Q8NEV4) | binding | 100 |
| RIPK4 (Homo sapiens, UniProt P57078) | cell-free assay | 93 |
| CDK11A (Homo sapiens, UniProt Q9UQ88) | binding | 100 |
| INSRR (Homo sapiens, UniProt P14616) | cell-free assay | 99 |

Single results of other studies
| Compound | matrix | quantity | result |
| --- | --- | --- | --- |
| CCC[C@@H]1NC(=O)CSC[C@@H](C(=O)OCC)N(C)C(=O)[C@H](CC(C)C)NC(=O)[C@H](C)N(C)C(=O)[C@@H](CC(C)C)NC(=O)[C@H](C)N(C)C(=O)[C@H]2CCCN2C(=O)[C@@H](CC(C)C)NC(=O)CN(CCC)C1=O | hydrocarbon/water | logD | 1.88 |

Repeated from above (block 5):
| target | observed | remaining binding [%] |
| --- | --- | --- |
| DCLK2 (Homo sapiens, UniProt Q8N568) | cell-free assay | 91 |
| Myosin-IIIb (MYO3B, Homo sapiens, UniProt Q8WXR4) | binding | 70 |
| PRKX (Homo sapiens, UniProt P51817) | cell-free assay | 100 |
| RIPK4 (Homo sapiens, UniProt P57078) | cell-free assay | 93 |
| RIOK3 (Homo sapiens, UniProt O14730) | cell-free assay | 100 |
| NEK7 (Homo sapiens, UniProt Q8TDX7) | cell-free assay | 90 |
| CLK2 (Homo sapiens, UniProt P49760) | cell-free assay | 96 |
